{"data": "Assay results from different studies", "target": "Serine/threonine-protein kinase TNNI3K (TNNI3K, Homo sapiens, UniProt Q59H18)", "note": "Compare with care: the assays were run in different laboratories."}
{"Compound": "CC(C)=CC1OC(C)(C)C2C=C3C(=O)C(Cl)=CC(O)C3C3C(O)C4OC4C(=O)C132 (stereo not drawn)", "effect on": "cell-free assay", "technique": "competition with immobilised ligand", "tested at": "10 µM", "quantity": "remaining binding", "result": "100%"}
{"Compound": "C=CC(=O)N1CCCC(n2c(=O)c3ncccc3n(Cc3ccc(Oc4ccccc4)cc3)c2=O)C1 (stereo not drawn)", "effect on": "cell-free assay", "technique": "competition with immobilised ligand", "tested at": "1 µM", "quantity": "remaining binding", "result": "100%"}
{"Compound": "CCN1CCN(Cc2ccc(C(=O)Nc3ccc(C)c(NCc4cnc5[nH]ccc5c4OC)c3)cc2C(F)(F)F)CC1", "effect on": "binding", "technique": "competition with immobilised ligand", "tested at": "1 µM", "quantity": "remaining binding", "result": "7%"}
{"Compound": "Nc1ncc2c(n1)-c1c([nH]c3ccc(C4=CCOCC4)cc13)CCC2", "effect on": "binding", "technique": "competition with immobilised ligand", "tested at": "1 µM", "quantity": "remaining binding", "result": "99%"}
{"Compound": "Cc1ccc(-c2c(/C=C(\\C#N)C(=O)NC(C)C)n(CCCO)c3ncnc(N)c23)cc1", "effect on": "cell-free assay", "technique": "competition with immobilised ligand", "tested at": "1 µM", "quantity": "remaining binding", "result": "81%"}
{"Compound": "COc1c(Cl)cccc1Nc1c(-c2ccncc2C#C[C@@]2(C)CCCN2C(=O)/C=C/CN(C)C)[nH]c2c1C(=O)NCC2", "effect on": "binding", "technique": "competition with immobilised ligand", "tested at": "3 µM", "quantity": "remaining binding", "result": "92%"}
{"Compound": "CNC1C[S+]2CC[S+]3CC[S+](C1)[Ru-4]321([N]=C=S)[n]2c3ccc(OC)cc3c3c4c(c5cc(F)c[n+]1c5c32)C(=O)NC4=O (stereo not drawn)", "technique": "KinomeScan", "tested at": "0.1 µM", "baseline": "untreated", "quantity": "remaining binding", "result": "100%"}
{"Compound": "Cc1ccc(C(=O)Nc2ccc(CN3CCN(C)CC3)c(C(F)(F)F)c2)cc1C#Cc1cnc2cccnn12", "effect on": "target engagement", "technique": "NanoBRET", "cells": "human cells", "quantity": "Hill slope", "result": 1.29}
{"Compound": "CNC(=O)C1CCN(c2cc(C)c(F)cc2NC(=O)c2ccc(-c3cc(O)ccc3C)c(C)c2)CC1", "effect on": "binding", "technique": "competition with immobilised ligand", "tested at": "1 µM", "quantity": "remaining binding", "result": "50%"}
{"Compound": "CCN1CCN(Cc2ccc(NC(=O)c3ccc(C)c(NC(=O)c4cncc(-c5cnn(C)c5)c4)c3)cc2C(F)(F)F)CC1", "effect on": "binding", "technique": "competition with immobilised ligand", "tested at": "1 µM", "quantity": "remaining binding", "result": "25%"}
{"Compound": "Cc1cnc2nc1Nc1cccc(c1)COC/C=C/COCc1cc(ccc1OCCN1CCOCC1)N2", "effect on": "binding", "technique": "competition with immobilised ligand", "tested at": "0.1 µM", "quantity": "remaining binding", "result": "100%"}
{"Compound": "COc1cc(Nc2nc(C)cc(-c3cnn4nc(OC)ccc34)n2)cc(C(F)(F)F)c1", "effect on": "binding", "technique": "competition with immobilised ligand", "tested at": "1 µM", "quantity": "remaining binding", "result": "100%"}
{"Compound": "CCN1CCN(Cc2ccc(NC(=O)c3ccc(C)c(NC(=O)c4cncc(-c5cccs5)c4)c3)cc2C(F)(F)F)CC1", "effect on": "binding", "technique": "competition with immobilised ligand", "tested at": "1 µM", "quantity": "remaining binding", "result": "3.1%"}
{"Compound": "C=CC(=O)N1CCc2ccc(-n3c(=O)ccc4cnc5ccc(-c6cnn(C)c6)cc5c43)cc21", "technique": "KINOMEscan", "tested at": "1 µM", "baseline": "DMSO control", "quantity": "remaining binding", "result": "84%"}
{"Compound": "COc1cc(Nc2nccc(-c3cnn4nc(OC)ccc34)n2)cc(C(F)(F)F)c1", "effect on": "binding", "technique": "competition with immobilised ligand", "tested at": "1 µM", "quantity": "remaining binding", "result": "93%"}
{"note": "A few entries again:"}
{"Compound": "CC(C)=CC1OC(C)(C)C2C=C3C(=O)C(Cl)=CC(O)C3C3C(O)C4OC4C(=O)C132 (stereo not drawn)", "effect on": "cell-free assay", "technique": "competition with immobilised ligand", "tested at": "10 µM", "quantity": "remaining binding", "result": "100%"}
